# Results from different studies.
# Each line is one published result; not all experiments were run side by side. “And” joins repeats or separate records; there may be more than shown.
# HSP90B1: Endoplasmin (HSP90B1, Canis lupus familiaris, UniProt P41148)
# Chain of UniProt P41148 (whole entry, looked up): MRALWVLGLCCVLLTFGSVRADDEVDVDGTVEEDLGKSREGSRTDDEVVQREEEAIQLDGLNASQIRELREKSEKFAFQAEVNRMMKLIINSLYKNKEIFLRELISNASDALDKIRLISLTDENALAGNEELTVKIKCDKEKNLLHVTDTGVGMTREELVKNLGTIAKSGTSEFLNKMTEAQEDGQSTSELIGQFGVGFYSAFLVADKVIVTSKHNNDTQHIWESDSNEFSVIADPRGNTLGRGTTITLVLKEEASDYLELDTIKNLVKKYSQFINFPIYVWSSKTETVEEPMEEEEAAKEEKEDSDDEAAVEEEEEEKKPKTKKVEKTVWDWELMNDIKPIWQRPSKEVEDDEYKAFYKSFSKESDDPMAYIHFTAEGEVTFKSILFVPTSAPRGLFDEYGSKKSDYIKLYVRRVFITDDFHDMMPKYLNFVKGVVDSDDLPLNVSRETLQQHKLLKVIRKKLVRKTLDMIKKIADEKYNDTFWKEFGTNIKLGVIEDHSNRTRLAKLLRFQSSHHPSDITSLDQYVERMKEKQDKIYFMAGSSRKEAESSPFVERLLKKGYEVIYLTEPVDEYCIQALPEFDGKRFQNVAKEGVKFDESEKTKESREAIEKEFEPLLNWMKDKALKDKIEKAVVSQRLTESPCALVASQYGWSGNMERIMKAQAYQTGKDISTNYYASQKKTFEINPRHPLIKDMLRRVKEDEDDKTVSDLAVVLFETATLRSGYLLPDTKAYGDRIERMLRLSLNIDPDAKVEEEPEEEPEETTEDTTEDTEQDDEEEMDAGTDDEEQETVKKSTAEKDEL
# GBA2: Beta-glucosidase (GBA2, Homo sapiens, UniProt Q9HCG7)
# Chain of UniProt Q9HCG7 (whole entry, looked up): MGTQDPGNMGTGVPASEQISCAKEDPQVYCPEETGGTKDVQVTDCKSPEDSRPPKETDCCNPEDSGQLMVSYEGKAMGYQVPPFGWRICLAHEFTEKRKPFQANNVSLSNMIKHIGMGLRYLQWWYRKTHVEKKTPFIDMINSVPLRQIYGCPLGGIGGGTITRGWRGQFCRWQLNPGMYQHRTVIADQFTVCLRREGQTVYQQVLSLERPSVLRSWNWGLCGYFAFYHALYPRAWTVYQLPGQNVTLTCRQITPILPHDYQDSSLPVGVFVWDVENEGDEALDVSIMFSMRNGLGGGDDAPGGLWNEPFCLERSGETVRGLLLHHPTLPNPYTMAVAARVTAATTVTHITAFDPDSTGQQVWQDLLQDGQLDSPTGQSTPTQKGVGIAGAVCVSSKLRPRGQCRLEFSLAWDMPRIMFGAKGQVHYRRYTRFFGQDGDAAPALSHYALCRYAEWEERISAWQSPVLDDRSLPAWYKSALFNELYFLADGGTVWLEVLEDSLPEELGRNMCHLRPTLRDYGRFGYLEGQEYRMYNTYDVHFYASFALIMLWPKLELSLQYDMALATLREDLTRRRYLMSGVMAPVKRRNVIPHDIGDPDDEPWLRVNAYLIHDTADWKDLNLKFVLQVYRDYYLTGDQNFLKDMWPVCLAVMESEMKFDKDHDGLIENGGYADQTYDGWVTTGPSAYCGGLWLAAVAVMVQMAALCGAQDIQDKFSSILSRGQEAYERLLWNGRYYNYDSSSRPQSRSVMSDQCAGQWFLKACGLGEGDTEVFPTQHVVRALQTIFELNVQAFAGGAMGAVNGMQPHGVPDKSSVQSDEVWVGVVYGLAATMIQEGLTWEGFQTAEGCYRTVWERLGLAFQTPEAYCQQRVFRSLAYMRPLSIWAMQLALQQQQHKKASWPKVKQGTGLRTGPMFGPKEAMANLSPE
# Chain of UniProt O00257 (whole entry, looked up): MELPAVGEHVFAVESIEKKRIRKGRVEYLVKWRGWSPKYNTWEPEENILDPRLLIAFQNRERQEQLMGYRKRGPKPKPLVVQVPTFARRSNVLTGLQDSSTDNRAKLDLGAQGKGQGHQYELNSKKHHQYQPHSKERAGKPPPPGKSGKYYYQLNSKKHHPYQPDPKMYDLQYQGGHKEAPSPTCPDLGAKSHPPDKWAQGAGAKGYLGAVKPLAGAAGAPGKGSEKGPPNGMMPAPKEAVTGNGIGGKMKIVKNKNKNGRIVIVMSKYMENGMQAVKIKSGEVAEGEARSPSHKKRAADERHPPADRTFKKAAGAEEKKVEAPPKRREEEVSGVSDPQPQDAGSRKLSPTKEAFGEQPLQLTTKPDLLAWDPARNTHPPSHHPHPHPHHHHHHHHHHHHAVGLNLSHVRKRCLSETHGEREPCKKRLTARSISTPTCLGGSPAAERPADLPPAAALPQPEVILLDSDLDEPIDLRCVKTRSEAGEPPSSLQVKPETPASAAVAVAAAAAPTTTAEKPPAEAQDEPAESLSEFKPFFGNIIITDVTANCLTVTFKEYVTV
# Chain of UniProt P21802 (whole entry, looked up): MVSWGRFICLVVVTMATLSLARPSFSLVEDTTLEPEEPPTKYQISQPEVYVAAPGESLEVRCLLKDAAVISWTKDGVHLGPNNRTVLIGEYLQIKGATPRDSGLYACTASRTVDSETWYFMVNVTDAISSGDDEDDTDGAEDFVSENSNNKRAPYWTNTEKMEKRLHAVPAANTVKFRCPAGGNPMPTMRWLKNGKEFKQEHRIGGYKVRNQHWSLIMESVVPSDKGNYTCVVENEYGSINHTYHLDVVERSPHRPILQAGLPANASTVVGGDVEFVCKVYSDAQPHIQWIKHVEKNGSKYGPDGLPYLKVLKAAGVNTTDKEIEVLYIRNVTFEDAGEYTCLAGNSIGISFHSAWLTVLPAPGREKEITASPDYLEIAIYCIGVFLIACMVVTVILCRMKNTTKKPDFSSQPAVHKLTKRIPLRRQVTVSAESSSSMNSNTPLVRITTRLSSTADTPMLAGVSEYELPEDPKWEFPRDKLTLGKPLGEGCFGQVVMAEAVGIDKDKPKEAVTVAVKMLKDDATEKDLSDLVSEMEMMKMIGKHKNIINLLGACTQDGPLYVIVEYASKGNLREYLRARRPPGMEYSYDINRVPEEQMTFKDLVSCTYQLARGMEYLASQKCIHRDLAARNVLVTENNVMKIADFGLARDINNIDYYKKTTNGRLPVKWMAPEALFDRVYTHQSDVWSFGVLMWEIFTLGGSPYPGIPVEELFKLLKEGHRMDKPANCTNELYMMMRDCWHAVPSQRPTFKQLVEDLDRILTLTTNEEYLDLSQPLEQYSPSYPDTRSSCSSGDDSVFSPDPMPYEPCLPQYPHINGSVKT
# Chain of UniProt P28161 (whole entry, looked up): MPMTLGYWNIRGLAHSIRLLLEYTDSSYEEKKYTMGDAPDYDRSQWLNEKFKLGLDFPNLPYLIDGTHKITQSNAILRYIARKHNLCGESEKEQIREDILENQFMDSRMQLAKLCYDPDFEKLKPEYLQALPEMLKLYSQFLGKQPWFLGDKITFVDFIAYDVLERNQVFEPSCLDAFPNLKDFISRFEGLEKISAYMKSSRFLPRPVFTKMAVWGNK
# Chain of UniProt Q15849 (whole entry, looked up): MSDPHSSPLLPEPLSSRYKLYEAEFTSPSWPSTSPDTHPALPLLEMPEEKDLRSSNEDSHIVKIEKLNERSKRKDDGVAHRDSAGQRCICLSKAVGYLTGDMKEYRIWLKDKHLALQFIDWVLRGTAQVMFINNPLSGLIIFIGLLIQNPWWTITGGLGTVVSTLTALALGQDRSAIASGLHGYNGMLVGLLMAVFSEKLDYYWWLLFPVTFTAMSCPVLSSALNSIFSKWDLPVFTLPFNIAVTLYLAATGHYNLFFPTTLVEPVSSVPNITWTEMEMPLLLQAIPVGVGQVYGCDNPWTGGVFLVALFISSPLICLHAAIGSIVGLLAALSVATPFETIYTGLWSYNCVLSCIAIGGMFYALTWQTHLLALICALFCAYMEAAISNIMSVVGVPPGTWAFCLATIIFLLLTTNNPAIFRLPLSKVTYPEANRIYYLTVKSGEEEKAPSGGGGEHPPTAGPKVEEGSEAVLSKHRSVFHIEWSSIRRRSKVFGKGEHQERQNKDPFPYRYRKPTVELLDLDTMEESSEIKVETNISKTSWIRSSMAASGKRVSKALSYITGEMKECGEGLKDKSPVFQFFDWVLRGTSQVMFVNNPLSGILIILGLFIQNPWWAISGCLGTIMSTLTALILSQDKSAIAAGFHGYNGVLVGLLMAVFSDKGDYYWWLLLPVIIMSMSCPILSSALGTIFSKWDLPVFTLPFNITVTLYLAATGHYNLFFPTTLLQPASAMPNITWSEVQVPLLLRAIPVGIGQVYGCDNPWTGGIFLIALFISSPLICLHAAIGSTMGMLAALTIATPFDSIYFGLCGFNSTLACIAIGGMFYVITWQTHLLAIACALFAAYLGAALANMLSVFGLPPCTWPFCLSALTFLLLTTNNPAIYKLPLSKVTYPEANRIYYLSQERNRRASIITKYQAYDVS
Structure (SMILES),target,test,test system,setting,how to read,selectivity ratio
COc1cccc(/C=C2/SC(=N)NC2=O)c1OC,"Urea transporter 2, UT-A2 isoform (SLC14A2, Homo sapiens, UniProt Q15849)","urea transport, inhibitor",,,reference: UT-B IC50 over UT-A2 IC50,~6 fold
COC(=O)c1c(O)cc(O)c(Cl)c1CCc1ccccc1Cc1ccccc1OC,HSP90B1,fluorescence polarization,,with: FITC-geldanamycin tracer,reference: HSP90B1 over Hsp90α,> 13 fold
CC(OCCCCCN1C[C@H](O)[C@@H](O)[C@H](O)[C@H]1CO)C(C)(C)C (some centres unmarked),GBA2,,,,reference: GBA1 over target,1240
C=C(C)C(=O)Nc1ccc(-c2c(-c3ccc(Oc4cccc(C)n4)cc3)c3c(N)ncnc3n2C)cc1,"FGFR2 (Homo sapiens, UniProt P21802)","kinact/KI, covalent inhibitor, intact mass spectrometry",,,reference: FGFR2 over FGFR1,~60 fold
COC(=O)c1c(O)cc(O)c(Cl)c1CCc1cccc(Cc2ccccc2)c1,HSP90B1,fluorescence polarization,,with: FITC-geldanamycin tracer,reference: HSP90B1 over Hsp90α,> 10 fold
OC[C@@H]1[C@@H](O)[C@H](O)[C@@H](O)CN1CCCCCOCC1CCCO1 (some centres unmarked),GBA2,,,,reference: GBA3 over target,819
CN(C)CCNC(=O)c1cccc2c(NCCCCc3c(N)nc(N)nc3N)c3ccccc3nc12,"RNA E, C–C mismatch","binding, ITC",,,reference: Kd RNA A over Kd RNA E,0.2
OC[C@@H]1[C@@H](O)[C@H](O)[C@@H](O)CN1CCCCCOCC1CCOC1 (some centres unmarked),GBA2,,,,reference: GBA3 over target,3360
C=C(CC)C(=O)c1ccc(OCC(=O)NCCCCNC(=O)COc2ccc(C(=O)C(=C)CC)c(Cl)c2Cl)c(Cl)c1Cl,"Glutathione S-transferase Mu 2 (Homo sapiens, UniProt P28161)","enzyme activity, inhibitor",,no preincubation,reference: GSTA IC50 over GSTM IC50,~12 fold
C[C@H](NC(=O)[C@H](Cc1ccccc1)NC(=O)c1ccc(C(C)(C)C)cc1)C(=O)N[C@H](C(=O)N[C@@H](CCCC[N+](C)(C)C)C(=O)N[C@@H](CO)C(N)=O)C1CCCC1,"E3 SUMO-protein ligase CBX4 (Homo sapiens, UniProt O00257)",competitive fluorescence polarization,,,reference: Cbx7 over E3 SUMO-protein ligase CBX4,> 4 fold and 4.3 fold
CC(=O)N[C@H](Cc1ccc2ccccc2c1)C(=O)N[C@](C)(Cc1ccc(Cl)cc1)C(=O)N[C@H](Cc1c[nH]c2ccccc12)C(=O)N[C@@H](CO)C(=O)N[C@@H](CCCCNC(C)C)C(=O)N[C@H](Cc1ccc(O)cc1)C(=O)N[C@@H](CC(C)C)C(=O)N[C@@H](CCCNC(=N)N)C(=O)N1CCC[C@H]1C(=O)N[C@H](C)C(N)=O,"Gonadotropin-releasing hormone receptor (Gallus gallus, UniProt Q9DDC9)","inositol phosphate production, antagonist",COS-7 transfected,,reference: Gonadotropin-releasing hormone receptor over cGnRH-R-III,153 fold

# Excerpt of the above:
Structure (SMILES),target,test,test system,setting,how to read,selectivity ratio
COC(=O)c1c(O)cc(O)c(Cl)c1CCc1ccccc1Cc1ccccc1OC,HSP90B1,fluorescence polarization,,with: FITC-geldanamycin tracer,reference: HSP90B1 over Hsp90α,> 13 fold
